Published values of several laboratories.
Protocols differ between the studies behind these lines. ± marks the error that the study gave.
OPRK1: Kappa-type opioid receptor (OPRK1, Homo sapiens, UniProt P41145)
UniProt P41145, sequence (whole entry, looked up): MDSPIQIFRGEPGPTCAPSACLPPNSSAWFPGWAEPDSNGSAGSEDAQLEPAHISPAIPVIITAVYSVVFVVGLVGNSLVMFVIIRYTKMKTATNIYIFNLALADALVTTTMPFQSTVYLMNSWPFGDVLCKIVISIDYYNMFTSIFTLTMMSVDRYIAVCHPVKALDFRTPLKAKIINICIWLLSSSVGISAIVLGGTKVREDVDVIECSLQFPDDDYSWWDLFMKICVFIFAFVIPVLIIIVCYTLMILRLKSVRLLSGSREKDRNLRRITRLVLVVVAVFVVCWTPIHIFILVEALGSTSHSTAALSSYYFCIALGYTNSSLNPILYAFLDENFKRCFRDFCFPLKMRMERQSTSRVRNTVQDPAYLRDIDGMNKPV
UniProt P35372, sequence (whole entry, looked up): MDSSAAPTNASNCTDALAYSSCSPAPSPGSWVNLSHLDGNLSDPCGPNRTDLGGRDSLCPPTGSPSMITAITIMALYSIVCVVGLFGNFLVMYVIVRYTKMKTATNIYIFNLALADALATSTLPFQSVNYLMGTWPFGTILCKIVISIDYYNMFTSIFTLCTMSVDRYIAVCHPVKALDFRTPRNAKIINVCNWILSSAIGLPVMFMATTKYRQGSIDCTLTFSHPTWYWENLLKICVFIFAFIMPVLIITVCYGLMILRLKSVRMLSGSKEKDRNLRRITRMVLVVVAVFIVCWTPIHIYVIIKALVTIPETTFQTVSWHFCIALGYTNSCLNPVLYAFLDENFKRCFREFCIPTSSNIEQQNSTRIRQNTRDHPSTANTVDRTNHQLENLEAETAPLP
UniProt P15151, sequence (whole entry, looked up): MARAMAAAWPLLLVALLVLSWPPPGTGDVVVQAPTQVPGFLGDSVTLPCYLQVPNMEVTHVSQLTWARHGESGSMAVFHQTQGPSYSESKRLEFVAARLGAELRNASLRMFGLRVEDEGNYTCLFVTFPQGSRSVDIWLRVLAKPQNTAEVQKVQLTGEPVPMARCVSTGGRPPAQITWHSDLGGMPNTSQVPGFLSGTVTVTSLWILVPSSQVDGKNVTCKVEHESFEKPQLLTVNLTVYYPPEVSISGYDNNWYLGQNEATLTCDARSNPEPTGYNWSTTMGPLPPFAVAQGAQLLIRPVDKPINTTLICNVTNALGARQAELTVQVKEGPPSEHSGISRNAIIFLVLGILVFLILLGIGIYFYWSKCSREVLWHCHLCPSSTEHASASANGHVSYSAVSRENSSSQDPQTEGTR
UniProt P43220, sequence (whole entry, looked up): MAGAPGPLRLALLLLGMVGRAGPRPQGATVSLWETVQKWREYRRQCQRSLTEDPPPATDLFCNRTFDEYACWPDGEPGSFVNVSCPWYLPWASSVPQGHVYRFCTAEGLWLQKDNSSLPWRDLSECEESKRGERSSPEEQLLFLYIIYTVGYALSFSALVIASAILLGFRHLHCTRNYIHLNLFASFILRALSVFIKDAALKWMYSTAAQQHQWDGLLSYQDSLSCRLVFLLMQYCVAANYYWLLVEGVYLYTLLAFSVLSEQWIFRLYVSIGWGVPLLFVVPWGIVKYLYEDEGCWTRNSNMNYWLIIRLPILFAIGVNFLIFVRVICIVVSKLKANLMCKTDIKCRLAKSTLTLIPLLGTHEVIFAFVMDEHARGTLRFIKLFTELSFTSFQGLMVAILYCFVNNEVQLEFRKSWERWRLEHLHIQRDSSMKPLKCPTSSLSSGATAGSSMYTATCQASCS
UniProt A0A125YHX7, sequence (whole entry, looked up): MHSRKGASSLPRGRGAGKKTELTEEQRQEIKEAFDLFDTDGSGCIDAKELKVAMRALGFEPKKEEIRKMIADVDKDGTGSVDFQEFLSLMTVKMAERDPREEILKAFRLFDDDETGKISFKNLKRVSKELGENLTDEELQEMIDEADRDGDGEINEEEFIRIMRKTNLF
UniProt P48546, sequence (whole entry, looked up): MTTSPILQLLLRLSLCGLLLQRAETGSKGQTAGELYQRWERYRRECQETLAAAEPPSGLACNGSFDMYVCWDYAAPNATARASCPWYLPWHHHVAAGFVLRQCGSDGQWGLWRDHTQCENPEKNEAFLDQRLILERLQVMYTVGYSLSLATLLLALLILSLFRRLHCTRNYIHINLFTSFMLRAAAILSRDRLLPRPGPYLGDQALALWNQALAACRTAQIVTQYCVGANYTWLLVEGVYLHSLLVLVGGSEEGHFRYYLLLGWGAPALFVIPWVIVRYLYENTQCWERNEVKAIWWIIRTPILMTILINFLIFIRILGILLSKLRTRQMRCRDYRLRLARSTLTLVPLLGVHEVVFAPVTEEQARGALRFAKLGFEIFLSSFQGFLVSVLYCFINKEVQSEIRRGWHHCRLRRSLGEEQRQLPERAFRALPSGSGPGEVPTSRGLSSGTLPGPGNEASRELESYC
UniProt P47871, sequence (whole entry, looked up): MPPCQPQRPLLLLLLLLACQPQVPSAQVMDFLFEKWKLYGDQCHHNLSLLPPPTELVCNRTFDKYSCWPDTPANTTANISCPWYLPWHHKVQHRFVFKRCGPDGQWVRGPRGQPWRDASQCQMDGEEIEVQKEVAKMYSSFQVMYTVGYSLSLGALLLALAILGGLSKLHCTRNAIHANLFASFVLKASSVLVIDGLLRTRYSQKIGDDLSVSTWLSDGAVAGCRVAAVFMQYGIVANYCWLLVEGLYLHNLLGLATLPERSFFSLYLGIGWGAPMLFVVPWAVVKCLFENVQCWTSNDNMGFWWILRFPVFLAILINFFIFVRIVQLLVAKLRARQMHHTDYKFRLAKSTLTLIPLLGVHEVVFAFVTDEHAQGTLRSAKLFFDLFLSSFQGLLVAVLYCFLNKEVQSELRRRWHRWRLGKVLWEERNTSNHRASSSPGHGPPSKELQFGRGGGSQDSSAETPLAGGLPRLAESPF
UniProt P41143, sequence (whole entry, looked up): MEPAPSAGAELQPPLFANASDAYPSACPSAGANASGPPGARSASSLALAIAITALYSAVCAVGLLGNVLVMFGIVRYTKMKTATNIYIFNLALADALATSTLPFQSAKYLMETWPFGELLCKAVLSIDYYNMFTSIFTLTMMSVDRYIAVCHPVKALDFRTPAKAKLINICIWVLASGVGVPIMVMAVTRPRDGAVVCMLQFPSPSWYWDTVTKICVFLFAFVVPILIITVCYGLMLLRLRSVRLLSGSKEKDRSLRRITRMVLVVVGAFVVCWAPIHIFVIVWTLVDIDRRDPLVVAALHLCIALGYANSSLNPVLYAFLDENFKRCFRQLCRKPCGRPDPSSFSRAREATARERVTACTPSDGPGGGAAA

With `CCCCCCCCCCCCCCCC(=O)N[C@@H](CCC(=O)NCCCC[C@H](NC(=O)[C@H](CC(=O)O)NC(=O)[C@H](CO)NC(=O)[C@@H](NC(=O)[C@H](Cc1ccccc1)NC(=O)[C@@H](NC(=O)CNC(=O)[C@H](CCC(N)=O)NC(=O)[C@H](C)NC(=O)[C@@H](Cc1ccc(O)cc1)NC(C)=O)[C@@H](C)O)[C@@H](C)O)C(=O)N[C@@H](CO)C(=O)N[C@@H](CCCCN)C(=O)N[C@@H](Cc1ccc(O)cc1)C(=O)N[C@@H](CC(C)C)C(=O)N[C@@H](CC(=O)O)C(=O)N[C@@H](CCC(=O)O)C(=O)N[C@@H](CCCNC(=N)N)C(=O)N[C@@H](C)C(=O)N[C@@H](C)C(=O)N[C@@H](CCC(N)=O)C(=O)N[C@@H](CC(=O)O)C(=O)N[C@@H](Cc1ccccc1)C(=O)N[C@H](C(=O)N[C@@H](CCC(N)=O)C(=O)N[C@@H](Cc1c[nH]c2ccccc12)C(=O)N[C@@H](CC(C)C)C(=O)N[C@@H](CC(C)C)C(=O)N[C@@H](CCC(=O)O)C(=O)NCC(=O)NCC(=O)N1CCC[C@H]1C(=O)N[C@@H](CO)C(=O)N[C@@H](CO)C(=O)NCC(=O)N[C@@H](C)C(=O)N1CCC[C@H]1C(=O)N1CCC[C@H]1C(=O)N1CCC[C@H]1C(=O)N[C@@H](CO)C(N)=O)C(C)C)C(=O)O` the EC50 was 0.0105 nM (Glucagon receptor (GCGR, Homo sapiens, UniProt P47871); reporter gene, agonist, luciferase).
`CC(C)C[C@H](NC(=O)[C@H](CO[C@@H]1O[C@H](CO)[C@@H](O)[C@H](O)[C@H]1O)NC(=O)[C@H](CCCCN)NC(=O)[C@H](CC(C)C)NC(=O)[C@H](C)NC(=O)[C@H](CCCCN)NC(=O)[C@H](CCC(=O)O)NC(=O)[C@H](C)NC(=O)[C@H](CC(C)C)NC(=O)[C@H](CC(N)=O)NC(=O)[C@@H]1CCCN1C(=O)[C@H](CC(C)C)NC(=O)[C@H](Cc1ccccc1)NC(=O)CNC(=O)[C@H](NC(=O)[C@@H](N)Cc1ccc(O)cc1)[C@H](C)O)C(N)=O` gave a Ki of 8.9 nM (OPRK1; ligand displacement, radioligand; pH 7.5, cell membranes).
For `CC[C@H](C)[C@H](NC(=O)[C@H](CC(C)C)NC(=O)[C@H](CC(C)C)NC(=O)CNC(=O)[C@H](CCCCN)NC(=O)[C@H](C)NC(=O)[C@H](CC(C)C)NC(=O)[C@H](CC(C)C)NC(=O)[C@H](CCCCN)NC(=O)[C@H](Cc1c[nH]c2ccccc12)NC(=O)[C@@H](N)CC(N)=O)C(=O)N[C@@H](CCCNC(=N)N)C(=O)N[C@@H](CCC(=O)O)C(=O)N[C@@H](CCCNC(=N)N)C(=O)N[C@@H](CC(C)C)C(=O)N[C@@H](CCCCN)C(=O)N[C@@H](CCCNC(=N)N)C(=O)O`, the Kd was 6.7 ± 1.1 nM (Centrin-1, C-terminal domain (CEN1, Toxoplasma gondii, UniProt A0A125YHX7); binding, ITC; pH 7.5, 25 °C, together with: 5 mM CaCl2).
`CCCCCCCCCCCCCCCC(=O)N[C@@H](CCC(=O)NCCOCCOCCC(=O)NCCOCCOCCC(=O)NCCCC[C@H](NC(=O)[C@H](CC(=O)O)NC(=O)[C@H](CC(C)C)NC(=O)[C@H](Cc1ccc(O)cc1)NC(=O)[C@H](CCCCN)NC(=O)[C@H](CO)NC(=O)[C@H](Cc1ccc(O)cc1)NC(=O)[C@H](CC(=O)O)NC(=O)[C@H](CO)NC(=O)[C@@H](NC(=O)[C@H](Cc1ccccc1)NC(=O)[C@@H](NC(=O)CNC(=O)[C@H](CCC(N)=O)NC(=O)[C@@H](CO)NC(=O)[C@@H](N)Cc1c[nH]cn1)[C@@H](C)O)[C@@H](C)O)C(=O)N[C@@H](CCCNC(=N)N)C(=O)N[C@@H](CCCNC(=N)N)C(=O)N[C@@H](C)C(=O)N[C@@H](CCC(N)=O)C(=O)N[C@@H](CC(=O)O)C(=O)N[C@@H](Cc1ccccc1)C(=O)N[C@H](C(=O)N[C@@H](CCC(N)=O)C(=O)N[C@@H](Cc1c[nH]c2ccccc12)C(=O)N[C@@H](CC(C)C)C(=O)N[C@@H](CCCC)C(=O)N[C@@H](CC(N)=O)C(=O)N[C@H](C(=O)NCC(=O)NCC(=O)N1CCC[C@H]1C(=O)N[C@@H](CO)C(=O)N[C@@H](CO)C(=O)NCC(=O)N[C@@H](C)C(=O)N1CCC[C@H]1C(=O)N1CCC[C@H]1C(=O)N1CCC[C@H]1C(=O)N[C@@H](CO)C(N)=O)[C@@H](C)O)C(C)C)C(=O)O` has an EC50 of 1.14 nM (GLP1R (Homo sapiens, UniProt P43220); reporter gene, agonist, luciferase).
With `Cc1cc(O)cc(C)c1C[C@H](N)C(=O)NCC(=O)NCC(=O)N[C@@H](Cc1ccccc1)C(=O)N[C@H](C(=O)NCC(=O)N[C@@H](C)C(=O)N[C@@H](CCCNC(=N)N)C(=O)N[C@@H](CCCCN)C(=O)N[C@@H](CO)C(=O)N[C@@H](C)C(=O)N[C@@H](CCCNC(=N)N)C(=O)N[C@@H](CCCCN)C(N)=O)[C@@H](C)O` the Ki was 0.0417 nM (OPRK1; ligand displacement, radioligand; cell membranes).
With `CC[C@H](C)[C@@H]1NC(=O)[C@H](CC(=O)O)NC(=O)[C@H]([C@@H](C)O)NC(=O)[C@@H]2CSSC[C@@H]3NC(=O)[C@H](CC(C)C)NC(=O)[C@H](CC(N)=O)NC(=O)[C@H](CC(C)C)NC(=O)[C@H](CCCNC(=N)N)NC(=O)[C@H](C)NC(=O)[C@H](CCCCN)NC(=O)[C@H](CCSC)NC(=O)[C@H](CO)NC(=O)[C@H]([C@@H](C)O)NC(=O)[C@H](CCCNC(=N)N)NC(=O)[C@H](CSSC[C@H](NC(=O)[C@H]([C@@H](C)O)NC(=O)[C@H](CCCCN)NC(=O)[C@H](CCCNC(=N)N)NC3=O)C(=O)NCC(=O)N[C@@H](CO)C(=O)N[C@H](C(=O)O)CSSC[C@H](NC(=O)[C@@H](NC(=O)[C@@H](N)CCCNC(=N)N)[C@@H](C)O)C(=O)N[C@@H](CCCCN)C(=O)N[C@@H](CC(=O)O)C(=O)N[C@@H](CC(C)C)C(=O)N[C@@H]([C@@H](C)CC)C(=O)N3CCC[C@H]3C(=O)N[C@@H](C(C)C)C(=O)N[C@@H](CO)C(=O)N[C@@H](CCC(=O)O)C(=O)N2)NC(=O)[C@H](CCCNC(=N)N)NC1=O` the Ki was 162 ± 13 nM (KcsA-Shaker channel; potassium current, inhibitor, two-electrode voltage clamp; Xenopus oocytes).
`CC(C)C[C@H](NC(=O)[C@H](CO[C@@H]1O[C@H](CO)[C@@H](O)[C@H](O)[C@H]1O)NC(=O)[C@H](CCCCN)NC(=O)[C@H](CC(C)C)NC(=O)C(C)(C)NC(=O)[C@H](CCCCN)NC(=O)[C@H](CCC(=O)O)NC(=O)C(C)(C)NC(=O)[C@H](CC(C)C)NC(=O)[C@H](CC(N)=O)NC(=O)[C@@H]1CCCN1C(=O)[C@H](CC(C)C)NC(=O)[C@H](Cc1ccccc1)NC(=O)CNC(=O)[C@H](NC(=O)[C@@H](N)Cc1ccc(O)cc1)[C@H](C)O)C(N)=O` gave a Ki of 9.1 ± 0.39 nM (OPRM1 (Homo sapiens, UniProt P35372); radioligand displacement; CHO membranes; 60 min, pH 7.5, 25 °C, together with: 0.25 nM [3H]DAMGO).
With `CC[C@H](C)[C@H](NC(=O)[C@H](CCCN)NC(=O)[C@H](CC(=O)O)NC(=O)[C@H](CC(C)C)NC(=O)C(C)(CC(C)C)NC(=O)[C@@H](NC(=O)[C@H](CO)NC(=O)[C@H](Cc1ccc(O)cc1)NC(=O)[C@H](CC(=O)O)NC(=O)[C@H](CO)NC(=O)[C@@H](NC(=O)[C@H](Cc1ccccc1)NC(=O)[C@@H](NC(=O)CNC(=O)[C@H](CCC(=O)O)NC(=O)C(C)(C)NC(=O)[C@@H](N)Cc1ccc(O)cc1)[C@@H](C)O)[C@@H](C)CC)[C@@H](C)CC)C(=O)N[C@@H](Cc1c[nH]cn1)C(=O)N[C@@H](CCC(N)=O)C(=O)NC(C)(C)C(=O)N[C@@H](CC(=O)O)C(=O)N[C@@H](Cc1ccccc1)C(=O)N[C@H](C(=O)N[C@@H](CCC(=O)O)C(=O)N[C@@H](Cc1ccc(O)cc1)C(=O)N[C@@H](CCCCNC(=O)COCCOCCNC(=O)COCCOCCNC(=O)CC[C@H](NC(=O)CCCCCCCCCCCCCCCCCCC(=O)O)C(=O)O)C(=O)N[C@@H](CC(C)C)C(=O)N[C@@H](CCC(=O)O)C(=O)NCC(=O)NCC(=O)N1CCC[C@H]1C(=O)N[C@@H](CO)C(=O)N[C@@H](CO)C(=O)NCC(=O)N[C@@H](C)C(=O)N1CCC[C@H]1C(=O)N1CCC[C@H]1C(=O)N1CCC[C@H]1C(=O)N[C@@H](CO)C(N)=O)C(C)C` (stereo partly drawn) the Ki was 0.104 nM (GIPR (Homo sapiens, UniProt P48546); cell-free assay).
With `CC(C)C[C@H](NC(=O)[C@H](CO[C@@H]1O[C@H](CO)[C@@H](O[C@@H]2O[C@H](CO)[C@H](O)[C@H](O)[C@H]2O)[C@H](O)[C@H]1O)NC(=O)[C@H](CCCCN)NC(=O)[C@H](CC(C)C)NC(=O)CNC(=O)[C@H](CCCCN)NC(=O)[C@H](CCC(=O)O)NC(=O)CNC(=O)[C@H](CC(C)C)NC(=O)[C@H](CC(N)=O)NC(=O)[C@@H]1CCCN1C(=O)[C@H](CC(C)C)NC(=O)[C@H](Cc1ccccc1)NC(=O)CNC(=O)[C@H](NC(=O)[C@@H](N)Cc1ccc(O)cc1)[C@H](C)O)C(N)=O` the Ki was 7 nM (OPRD1 (Homo sapiens, UniProt P41143); ligand displacement, radioligand; pH 7.5, cell membranes).
`CC[C@H](C)[C@H](NC(=O)[C@H](CCCNC(=N)N)NC(=O)[C@H](CCCNC(=N)N)NC(=O)[C@H](CC(C)C)NC(=O)[C@H](Cc1ccccc1)NC(=O)CNC(=O)CNC(=O)[C@@H](N)Cc1ccc(O)cc1)C(=O)N[C@@H](CCCNC(=N)N)C(=O)N1CCC[C@H]1C(=O)O` has an EC50 of 1.36 nM (OPRK1; cAMP, agonist, TR-FRET).
`CC(C)C[C@H](NC(=O)[C@H](CO)NC(=O)[C@H](CCCCN)NC(=O)[C@H](CC(C)C)NC(=O)[C@H](C)NC(=O)[C@H](CCCCN)NC(=O)[C@H](CCC(=O)O)NC(=O)C(C)(C)NC(=O)[C@H](CC(C)C)NC(=O)[C@H](CC(N)=O)NC(=O)[C@@H]1CCCN1C(=O)[C@H](CC(C)C)NC(=O)[C@H](Cc1ccccc1)NC(=O)CNC(=O)[C@H](NC(=O)[C@@H](N)Cc1ccc(O)cc1)[C@H](C)O)C(N)=O` has a Ki of 26 nM (OPRK1; ligand displacement, radioligand; pH 7.5, cell membranes).
The Kd of `CC[C@H](C)[C@@H]1NC(=O)[C@@H]2CCCN2C(=O)[C@H](Cc2c[nH]c3ccccc23)NC(=O)[C@H](CO)NC(=O)[C@H](Cc2c[nH]c3ccccc23)NC(=O)[C@H](CC(N)=O)NC(=O)[C@H](CCCCN)NC(=O)[C@H](CCSC)NC(=O)[C@@H]2CSCCC(=O)N3CN(CN(C3)C(=O)CCSC[C@H](NC(=O)[C@H](C)N)C(=O)N3CCC[C@H]3C(=O)N[C@@H](Cc3ccccc3)C(=O)NCC(=O)N2)C(=O)CCSC[C@@H](C(=O)N[C@H](C(=O)N[C@@H](CC(N)=O)C(=O)N[C@@H](CCCCN)C(=O)N(C)CC(=O)N(C)CC(=O)N(C)CC(=O)N(C)CC(=O)N(C)CC(=O)N(C)CC(=O)N[C@@H](CCCCNC(=O)c2ccc(C(=O)O)c(-c3c4ccc(=O)cc-4oc4cc(O)ccc34)c2)C(N)=O)[C@@H](C)O)NC(=O)[C@H](Cc2c[nH]c3ccccc23)NC1=O` is reported as over 2000 nM (Poliovirus receptor (PVR, Homo sapiens, UniProt P15151); fluorescence polarization).

For quick reference, copied from above:
`CCCCCCCCCCCCCCCC(=O)N[C@@H](CCC(=O)NCCOCCOCCC(=O)NCCOCCOCCC(=O)NCCCC[C@H](NC(=O)[C@H](CC(=O)O)NC(=O)[C@H](CC(C)C)NC(=O)[C@H](Cc1ccc(O)cc1)NC(=O)[C@H](CCCCN)NC(=O)[C@H](CO)NC(=O)[C@H](Cc1ccc(O)cc1)NC(=O)[C@H](CC(=O)O)NC(=O)[C@H](CO)NC(=O)[C@@H](NC(=O)[C@H](Cc1ccccc1)NC(=O)[C@@H](NC(=O)CNC(=O)[C@H](CCC(N)=O)NC(=O)[C@@H](CO)NC(=O)[C@@H](N)Cc1c[nH]cn1)[C@@H](C)O)[C@@H](C)O)C(=O)N[C@@H](CCCNC(=N)N)C(=O)N[C@@H](CCCNC(=N)N)C(=O)N[C@@H](C)C(=O)N[C@@H](CCC(N)=O)C(=O)N[C@@H](CC(=O)O)C(=O)N[C@@H](Cc1ccccc1)C(=O)N[C@H](C(=O)N[C@@H](CCC(N)=O)C(=O)N[C@@H](Cc1c[nH]c2ccccc12)C(=O)N[C@@H](CC(C)C)C(=O)N[C@@H](CCCC)C(=O)N[C@@H](CC(N)=O)C(=O)N[C@H](C(=O)NCC(=O)NCC(=O)N1CCC[C@H]1C(=O)N[C@@H](CO)C(=O)N[C@@H](CO)C(=O)NCC(=O)N[C@@H](C)C(=O)N1CCC[C@H]1C(=O)N1CCC[C@H]1C(=O)N1CCC[C@H]1C(=O)N[C@@H](CO)C(N)=O)[C@@H](C)O)C(C)C)C(=O)O` has an EC50 of 1.14 nM (GLP1R (Homo sapiens, UniProt P43220); reporter gene, agonist, luciferase).
With `Cc1cc(O)cc(C)c1C[C@H](N)C(=O)NCC(=O)NCC(=O)N[C@@H](Cc1ccccc1)C(=O)N[C@H](C(=O)NCC(=O)N[C@@H](C)C(=O)N[C@@H](CCCNC(=N)N)C(=O)N[C@@H](CCCCN)C(=O)N[C@@H](CO)C(=O)N[C@@H](C)C(=O)N[C@@H](CCCNC(=N)N)C(=O)N[C@@H](CCCCN)C(N)=O)[C@@H](C)O` the Ki was 0.0417 nM (OPRK1; ligand displacement, radioligand; cell membranes).
